Measured values collected from several papers.
Lines come from different studies, so protocols differ. Numbers after ± are the reported error.

CC(C)C[C@H](NC(=O)[C@H](CCc1ccccc1)NC(=O)CN1CCOCC1)C(=O)N[C@@H](Cc1ccccc1)C(=O)N[C@@H](CC(C)C)C(=O)[C@@]1(C)CO1 has a Tmax (median) of 0.15 h (human patients, plasma; intravenous infusion 10 min, 20 mg/m^2, day 1 of cycle 1, KRd regimen).
CNC(=O)c1cccc2cc(Oc3ccnc4cc(OCC5(N)CC5)c(OC)cc34)ccc12 gave a Tmax median of 2.02 h (human patients intermittent arm, plasma; oral, 10 mg, single dose cycle 1 day 1).
For O=C(c1cccnc1-c1ccncc1)N1CCC(O)(Cc2ccccc2)CC1, the tmax was 0.42 h (healthy human, plasma; oral, 300 mg once daily, day 1).
The tmax of CC[C@H](C)[C@H](NC(=O)[C@H](CC(C)C)NC(=O)[C@H](Cc1c[nH]c2ccccc12)NC(=O)[C@H](C)NC(=O)[C@@H](NC(=O)[C@H](Cc1ccccc1)NC(=O)[C@H](CC(=O)O)NC(=O)[C@H](CCCNC(=N)N)NC(=O)[C@H](C)NC(=O)[C@H](C)NC(=O)[C@H](CC(C)C)NC(=O)[C@H](C)NC(=O)[C@H](CC(=O)O)NC(=O)[C@H](CC(C)C)NC(=O)[C@@H](NC(=O)[C@@H](NC(=O)[C@H](C)NC(=O)[C@H](CC(C)C)NC(=O)[C@H](CCC(=O)O)NC(=O)[C@H](CO)NC(=O)[C@H](CO)NC(=O)[C@H](Cc1ccccc1)NC(=O)[C@@H](NC(=O)CNC(=O)[C@H](CCC(=O)O)NC(=O)CNC(=O)[C@@H](N)Cc1cnc[nH]1)[C@@H](C)O)[C@@H](C)O)[C@@H](C)CC)[C@@H](C)CC)C(=O)N[C@@H](C)C(=O)N[C@H](C(=O)N[C@@H](CCCCN)C(=O)N[C@H](C(=O)N[C@H](C(=O)N[C@@H](CC(=O)O)C(=O)N[C@@H](CCCCN)C(=O)N[C@@H](CCCCN)C(=O)N[C@@H](CCCCN)C(=O)N[C@@H](CCCCN)C(=O)N[C@@H](CCCCN)C(=O)N[C@@H](CCCCN)C(N)=O)[C@@H](C)O)[C@@H](C)CC)[C@@H](C)O is reported as 0.52 h (healthy human subjects, plasma; subcutaneous, 5 mg once weekly, day 36 after 6 doses, steady state, median).
With C=CC(=O)Nc1cc(Nc2ncc(C(=O)OC(C)C)c(-c3cn(C)c4ccccc34)n2)c(OC)cc1N(C)CCN(C)C the Tmax difference was 2 h (humans; oral, 160 mg, together with: rifampin; relative to: compound alone).
CNC(=O)c1ccc(-c2cnc3ncc(Cc4ccc5ncccc5c4)n3n2)cc1F has a Tmax (median) of 1 to 1.5 h (human, normal and hepatically impaired, plasma; oral, 200 mg single dose).
For CCOc1c([C@H](C)n2nc(C)c3c(N)ncnc32)cc(Cl)c(F)c1[C@@H]1CNC(=O)C1, the Tmax median was 1 h (healthy fasted humans, plasma; oral, 10 mg).
For CNCc1ccc(-c2[nH]c3cc(F)cc4c3c2CCNC4=O)cc1, the Tmax was 1.5 h (human patients, plasma; oral, 240 mg twice daily, day 15, steady state, median).
With COc1ccc2nc([S@@+]([O-])Cc3ncc(C)c(OC)c3C)[nH]c2c1 the Tmax was 0.17 ± 0.29 h (HPLC; human CYP2C19 ultra-rapid metabolizers, plasma; oral, 40 mg/day, day 5, pantoprazole).
Under “Tmax at steady state”, O=C(O)COC[C@H]1CC[C@H](COC(=O)N(c2ccccc2)c2ccc(Cl)cc2)CC1 is recorded as 8 h (human; oral, 400 µg once daily, day 21).

Some of these lines once more:
The tmax of CC[C@H](C)[C@H](NC(=O)[C@H](CC(C)C)NC(=O)[C@H](Cc1c[nH]c2ccccc12)NC(=O)[C@H](C)NC(=O)[C@@H](NC(=O)[C@H](Cc1ccccc1)NC(=O)[C@H](CC(=O)O)NC(=O)[C@H](CCCNC(=N)N)NC(=O)[C@H](C)NC(=O)[C@H](C)NC(=O)[C@H](CC(C)C)NC(=O)[C@H](C)NC(=O)[C@H](CC(=O)O)NC(=O)[C@H](CC(C)C)NC(=O)[C@@H](NC(=O)[C@@H](NC(=O)[C@H](C)NC(=O)[C@H](CC(C)C)NC(=O)[C@H](CCC(=O)O)NC(=O)[C@H](CO)NC(=O)[C@H](CO)NC(=O)[C@H](Cc1ccccc1)NC(=O)[C@@H](NC(=O)CNC(=O)[C@H](CCC(=O)O)NC(=O)CNC(=O)[C@@H](N)Cc1cnc[nH]1)[C@@H](C)O)[C@@H](C)O)[C@@H](C)CC)[C@@H](C)CC)C(=O)N[C@@H](C)C(=O)N[C@H](C(=O)N[C@@H](CCCCN)C(=O)N[C@H](C(=O)N[C@H](C(=O)N[C@@H](CC(=O)O)C(=O)N[C@@H](CCCCN)C(=O)N[C@@H](CCCCN)C(=O)N[C@@H](CCCCN)C(=O)N[C@@H](CCCCN)C(=O)N[C@@H](CCCCN)C(=O)N[C@@H](CCCCN)C(N)=O)[C@@H](C)O)[C@@H](C)CC)[C@@H](C)O is reported as 0.52 h (healthy human subjects, plasma; subcutaneous, 5 mg once weekly, day 36 after 6 doses, steady state, median).
